{"data": "Measured values gathered from unrelated publications", "note": "Every numbered part comes from another study and shows a few of its results, in no order."}
{"data": "Study 1", "target": "Interferon regulatory factor 7, full length, phosphomimetic (IRF7, Homo sapiens, UniProt Q92985, residues 1-503, S471D/S472D/S475D/S476D/S477D/S483D/S484D/S487D)", "method": "protein-binding microarray", "molecule type": "double-stranded DNA, one strand shown", "medium": "in vitro", "concentration": "2200 nM top", "notes": "60-bp whole probe", "added": "salmon DNA 0.4 mg/ml", "relative to": "random background probes", "direction": "higher = stronger binding", "all sequences stand within": "GCCTAGCAC … GTCTTGATTCGCTTGACGCTGCTG", "Target sequence (chain)": "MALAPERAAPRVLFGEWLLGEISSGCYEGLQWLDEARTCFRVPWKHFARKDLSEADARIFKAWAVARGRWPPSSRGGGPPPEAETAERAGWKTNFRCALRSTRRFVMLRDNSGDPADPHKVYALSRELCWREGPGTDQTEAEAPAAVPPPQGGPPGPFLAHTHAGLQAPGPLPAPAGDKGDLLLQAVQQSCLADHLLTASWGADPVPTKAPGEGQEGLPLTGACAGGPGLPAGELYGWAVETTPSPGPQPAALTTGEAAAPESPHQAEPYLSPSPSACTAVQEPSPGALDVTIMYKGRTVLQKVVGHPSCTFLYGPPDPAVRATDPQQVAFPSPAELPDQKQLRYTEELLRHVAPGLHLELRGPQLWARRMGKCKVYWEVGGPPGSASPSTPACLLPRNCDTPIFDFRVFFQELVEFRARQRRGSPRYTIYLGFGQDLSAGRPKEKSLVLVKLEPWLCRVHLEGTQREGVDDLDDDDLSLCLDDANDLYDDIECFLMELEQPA"}
{"Oligonucleotide": "GACGGTTCCCTTTTCCCGACGTGCTAG", "fitted relative affinity [z-score]": 2.72}
{"Oligonucleotide": "TAATTTTCATTTTCCAAATGGTGCTAG", "fitted relative affinity [z-score]": 7.08}
{"Oligonucleotide": "GACGGTCTCTTACTGCTGACGTGCTAG", "fitted relative affinity [z-score]": 0.639}
{"Oligonucleotide": "GGCGGTTTCCTTTTCCTGACGTGCTAG", "fitted relative affinity [z-score]": 5.75}
{"Oligonucleotide": "TTACGTCTCCTTTTCCTTTAGTGCTAG", "fitted relative affinity [z-score]": 3.21}
{"Oligonucleotide": "GACGGTATCGGTTACGGGACGTGCTAG", "fitted relative affinity [z-score]": 0.237}
{"Oligonucleotide": "TCAAGTCTGCAACATGGGACTGTGCTA", "fitted relative affinity [z-score]": -0.313}
{"Oligonucleotide": "GACGGTATCGGACTGTGGACGTGCTAG", "fitted relative affinity [z-score]": -0.243}
{"Oligonucleotide": "TTAGGTATCGGTTTTCGGTTAGTGCTA", "fitted relative affinity [z-score]": 5.24}
{"Oligonucleotide": "TTAGGTTTCGGGGTTCGGTTAGTGCTA", "fitted relative affinity [z-score]": 3.77}
{"Oligonucleotide": "GACGATTTCCGTATCGAGACGTGCTAG", "fitted relative affinity [z-score]": 2.03}
{"Oligonucleotide": "GACGGACTGGGGTTTCGTGACGTGCTA", "fitted relative affinity [z-score]": -0.166}
{"Oligonucleotide": "TCAAATCTGTGTTATTAAACTGTGCTA", "fitted relative affinity [z-score]": 0.066}
{"Oligonucleotide": "GACGGTTTCGGCCTGGGGACGTGCTAG", "fitted relative affinity [z-score]": 3.28}
{"Oligonucleotide": "AACGGTTTCCTTATCCTGACGTGCTAG", "fitted relative affinity [z-score]": 2.94}
{"Oligonucleotide": "GACGAGCTGAGTATCGAGACGTGCTAG", "fitted relative affinity [z-score]": -0.22}
{"Oligonucleotide": "CTGAGGCTGCCGTGGCCATGGTGCTAG", "fitted relative affinity [z-score]": -1.41}
{"Oligonucleotide": "GACGGTCACCTTCTCCTGACGTGCTAG", "fitted relative affinity [z-score]": 0.63}
{"Oligonucleotide": "TTAGGATTCGGTTTCGGTTAGTGCTAG", "fitted relative affinity [z-score]": 9.38}
{"Oligonucleotide": "GACGAATTGGGGACTGGAGACGTGCTA", "fitted relative affinity [z-score]": -0.19}
{"Oligonucleotide": "GACGGTTTGGGTCTCGGGACGTGCTAG", "fitted relative affinity [z-score]": 0.462}
{"Oligonucleotide": "TTAGGTATCCTATTGCTTTAGTGCTAG", "fitted relative affinity [z-score]": 0.616}
{"Oligonucleotide": "TACGAACTGGGGTTTCGAGACGTGCTA", "fitted relative affinity [z-score]": 1.3}
{"Oligonucleotide": "GCCGATCTCAGTTTCGAGACGTGCTAG", "fitted relative affinity [z-score]": 3.83}
{"Oligonucleotide": "TTAGGACTGCTACTTCTTTAGTGCTAG", "fitted relative affinity [z-score]": -0.0387}
{"data": "Study 2", "target": "Sal-like protein 4, full length isoform A (SALL4, Homo sapiens, UniProt Q9UJQ4, residues 1-1053)", "method": "universal PBM", "molecule type": "double-stranded DNA, one strand shown", "medium": "in vitro", "concentration": "600 nM", "notes": "8-mer, flanks averaged, mean of replicates", "direction": "higher = stronger binding", "sequence of UniProt Q9UJQ4 (whole entry, looked up)": "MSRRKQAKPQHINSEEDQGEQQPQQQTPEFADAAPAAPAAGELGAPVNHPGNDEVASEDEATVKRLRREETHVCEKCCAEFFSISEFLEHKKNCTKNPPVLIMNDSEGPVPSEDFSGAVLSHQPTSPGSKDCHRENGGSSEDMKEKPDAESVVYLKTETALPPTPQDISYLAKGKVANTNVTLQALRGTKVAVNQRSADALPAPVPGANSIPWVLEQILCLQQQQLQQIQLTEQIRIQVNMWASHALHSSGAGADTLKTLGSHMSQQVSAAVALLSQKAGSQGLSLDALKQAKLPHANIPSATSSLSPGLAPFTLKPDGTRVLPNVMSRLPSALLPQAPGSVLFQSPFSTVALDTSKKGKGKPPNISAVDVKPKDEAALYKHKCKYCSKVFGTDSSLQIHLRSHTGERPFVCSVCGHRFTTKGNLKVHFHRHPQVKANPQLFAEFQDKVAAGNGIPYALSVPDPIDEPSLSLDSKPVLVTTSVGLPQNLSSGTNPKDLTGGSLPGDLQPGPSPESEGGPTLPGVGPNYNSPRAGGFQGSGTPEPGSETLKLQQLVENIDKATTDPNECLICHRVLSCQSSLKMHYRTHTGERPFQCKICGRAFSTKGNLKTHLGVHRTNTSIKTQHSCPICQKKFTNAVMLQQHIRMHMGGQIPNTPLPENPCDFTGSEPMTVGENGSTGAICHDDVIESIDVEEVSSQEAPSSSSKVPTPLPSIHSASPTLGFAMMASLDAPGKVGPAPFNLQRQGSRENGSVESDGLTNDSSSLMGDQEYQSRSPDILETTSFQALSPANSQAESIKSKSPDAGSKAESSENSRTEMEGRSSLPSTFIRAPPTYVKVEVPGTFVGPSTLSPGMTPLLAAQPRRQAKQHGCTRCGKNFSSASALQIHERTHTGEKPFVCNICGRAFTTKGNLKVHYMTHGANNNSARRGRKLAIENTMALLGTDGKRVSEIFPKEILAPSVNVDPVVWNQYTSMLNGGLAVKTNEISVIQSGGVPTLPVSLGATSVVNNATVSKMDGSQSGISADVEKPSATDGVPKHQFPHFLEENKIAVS"}
{"Oligonucleotide": "CCAGTGCG", "E-score": -0.304}
{"Oligonucleotide": "AGTCTGCA", "E-score": -0.174}
{"Oligonucleotide": "CACAAATA", "E-score": 0.326}
{"Oligonucleotide": "CAAGTTTC", "E-score": 0.122}
{"Oligonucleotide": "ACCTATAT", "E-score": 0.313}
{"Oligonucleotide": "GGGGGGAA", "E-score": -0.182}
{"Oligonucleotide": "CATGCATG", "E-score": 0.108}
{"Oligonucleotide": "AGAACCAT", "E-score": 0.119}
{"Oligonucleotide": "CCGTTGGA", "E-score": -0.278}
{"Oligonucleotide": "ACGGCCAT", "E-score": -0.17}
{"Oligonucleotide": "ACGAATGG", "E-score": 0.0484}
{"Oligonucleotide": "ATCTATGG", "E-score": -0.0675}
{"Oligonucleotide": "GGGCGGAC", "E-score": -0.345}
{"Oligonucleotide": "AGGCGGAC", "E-score": -0.243}
{"Oligonucleotide": "ACTCCTAG", "E-score": -0.158}
{"Oligonucleotide": "CCGTACGA", "E-score": 0.00839}
{"Oligonucleotide": "GAATCCTA", "E-score": 0.158}
{"Oligonucleotide": "CGTCGGAC", "E-score": -0.262}
{"data": "Study 3", "target": "RNA binding protein fox-1 homolog 2, RRM domain, GST-SBP tag (RBFOX2, Homo sapiens, UniProt O43251-10, residues 100-194)", "method": "RNA Bind-n-Seq", "molecule type": "RNA", "medium": "in vitro", "concentration": "365 nM", "notes": "natural RNA segment, single round, ends assumed", "relative to": "no-protein control", "direction": "higher = stronger binding", "Construct (chain)": "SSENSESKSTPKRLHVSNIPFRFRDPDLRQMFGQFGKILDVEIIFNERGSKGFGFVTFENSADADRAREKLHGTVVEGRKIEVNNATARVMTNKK"}
{"Oligonucleotide": "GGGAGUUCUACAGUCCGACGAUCCUGUGGGUGGGGAUGAGUUGCUUGACUCAUGUUUAGACGCAUGGUUCUGUCUGGUGAUUGAGGUGCCCAGGCGACGCUGGGCAAUGUCAAGAGAGGUUUUGGCUUGUCACUGGAAUUCUCGGGUGCCAA", "RBNS enrichment (R)": 0.45}
{"Oligonucleotide": "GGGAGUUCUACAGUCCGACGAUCACUUUUAACCUGGUUUUGCUUUUGCUUUUCCUGACUCCCUUUGCUCAGAGUCAGUUGCACACCAGUAGGAUGGCAUGCUACGAUCAGUUUCUGUCCUGAAAGCUUUGCCUUGGAAUUCUCGGGUGCCAA", "RBNS enrichment (R)": 5.57}
{"Oligonucleotide": "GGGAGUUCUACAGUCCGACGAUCCCGUGGAUGAGUUUAGUGUACAGACUUGUAAACAGCUGCCCCCUCUCUGCUCAGUCUAGUUCCCAGAUCCUUUUCUUUUCUUUUUAAUUGCUCAUUUGUAAAAUUGUCCUUGGAAUUCUCGGGUGCCAA", "RBNS enrichment (R)": 0.838}
{"Oligonucleotide": "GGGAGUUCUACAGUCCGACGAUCCGCCUCUAGUAGAUGGUAGUGGUGGGGCUAGUGUGUGGCUGUUACCUGGGCCGCUCAAAUUCAUUCCAGGGAGGAGGCUCCACUGCAUUCUUUGGCUGUGCCCUGAGGGUUGGAAUUCUCGGGUGCCAA", "RBNS enrichment (R)": 1.95}
{"Oligonucleotide": "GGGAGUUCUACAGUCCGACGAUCGUGGGUUCCCUGCCACCCAGGCAAACAGGCUGAAGAUUCUCACCUUUUCUUUCCAGUGUGAUUACACGUGCAUUUCCAGGUGCUGAUUUGCAGCUCUCUGUUACCUUAAUUGGAAUUCUCGGGUGCCAA", "RBNS enrichment (R)": 0.254}
{"Oligonucleotide": "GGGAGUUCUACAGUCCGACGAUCCACAAUCGUGCAUAGAAUUGCCUCAAGUCCUGGUGAGAGAGAUGCCGUGGUACUUUUCCAUUUAGAUUCAAAUGGAGCUAAAAUUAAGAGUUUUAUGAGCUGUUAAGAAUUGGAAUUCUCGGGUGCCAA", "RBNS enrichment (R)": 0.418}
{"Oligonucleotide": "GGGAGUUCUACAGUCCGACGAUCGAGGUCACAUGCAGGACUGGGGUGGCCACUUGGCAGAGUCCUUGGGGUUCAGACCUCCACAGGCUAGGUAGCUCAGCUUGCUUACAGACUGGAGACAUUUUCUUGUGUGGUGGAAUUCUCGGGUGCCAA", "RBNS enrichment (R)": 0.724}
{"Oligonucleotide": "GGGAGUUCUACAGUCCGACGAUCAGCUUGAAUGCUUAAAUAUGUGCACCUUUACAAACCUCUCAGUGUAUUCUUGGAGUUCUUGAAAUGUUGUUUUAAUAUUUGUUGCCAGUAAUGUUCUUUCUUCACAGCCGUGGAAUUCUCGGGUGCCAA", "RBNS enrichment (R)": 0.196}
{"Oligonucleotide": "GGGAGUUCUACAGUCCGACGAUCUCCACUCACAUUGCAGAACAAUUCCGAAAAUGGCAAACUACUACUACUACUGUUCAGUUUUUUAAAAGUUUUGAAAUGCUGCACUUACAUUUAAAAAAACAACAACAACAUGGAAUUCUCGGGUGCCAA", "RBNS enrichment (R)": 1.23}
{"Oligonucleotide": "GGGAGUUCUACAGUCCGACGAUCAGAUGUCCCACAUGGAAGACGCUAUUCCAGGAUCUUUAAAUUUCCAUGGAUGCAUAUAGGAUGUUUGGGAGCAUCAUCCGUGAAGAAAAAAUCAAUUAAAUCAUUGUGUUUGGAAUUCUCGGGUGCCAA", "RBNS enrichment (R)": 0.601}
{"Oligonucleotide": "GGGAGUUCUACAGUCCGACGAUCGGCACCUAAUGGGGAUGGAACAUUGGUGGAACCGGAGGGAGGGGCCUGAGAGCUGUACCUAUCAGAACCUUGGGUGCUAAGCUGUGCUGAGGGGGAAGACGUGGGACCGGUGGAAUUCUCGGGUGCCAA", "RBNS enrichment (R)": 0.965}
{"Oligonucleotide": "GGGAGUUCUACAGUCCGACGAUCACUCAGAAAGAGGUCUCCCCAUCCCCAUUCGGGGCUGACGAUGGGGGGCUGAUGGCUGCCCCUGCGUGGCCUGAGUCCUGGUCCCUCUGAGGCAGUUGACGGGGCAGUCAUGGAAUUCUCGGGUGCCAA", "RBNS enrichment (R)": 0.312}
{"data": "Study 4", "target": "Histone acetyltransferase KAT6A, winged helix 1, GST fusion (KAT6A, Homo sapiens, UniProt Q92794, residues 1-85)", "method": "protein binding microarray", "molecule type": "double-stranded DNA, one strand shown", "medium": "in vitro", "concentration": "not given", "notes": "8-mer, flanks averaged, mean of 2 arrays, mostly near background", "relative to": "not given", "direction": "higher = stronger binding", "Construct (chain)": "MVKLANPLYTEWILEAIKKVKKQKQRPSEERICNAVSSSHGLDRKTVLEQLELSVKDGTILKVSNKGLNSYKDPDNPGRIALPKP"}
{"Oligonucleotide": "AACTTTCT", "E-score": -0.0562}
{"Oligonucleotide": "CATCTGGC", "E-score": -0.21}
{"Oligonucleotide": "AGGATCTA", "E-score": -0.16}
{"Oligonucleotide": "GTCCATTA", "E-score": -0.0917}
{"Oligonucleotide": "AGAGGCCT", "E-score": -0.183}
{"Oligonucleotide": "TGACTCAA", "E-score": -0.0838}
{"Oligonucleotide": "GCGTCATA", "E-score": 0.00741}
{"Oligonucleotide": "GTCCAAAC", "E-score": -0.0837}
{"Oligonucleotide": "CACAGAAA", "E-score": -0.156}
{"Oligonucleotide": "CTGTCTCA", "E-score": -0.15}
{"Oligonucleotide": "ACCTGGTC", "E-score": 0.0144}
{"Oligonucleotide": "CCCATCAG", "E-score": -0.137}
{"Oligonucleotide": "GACTGTGA", "E-score": -0.214}
{"Oligonucleotide": "CCCGTAAC", "E-score": 0.337}
{"Oligonucleotide": "AACCGCAT", "E-score": 0.175}
{"Oligonucleotide": "ATAGTTTG", "E-score": -0.127}
{"Oligonucleotide": "CATCTCGG", "E-score": -0.02}
{"Oligonucleotide": "CGCGGCGA", "E-score": 0.445}
{"Oligonucleotide": "AAAATACC", "E-score": -0.0316}
{"Oligonucleotide": "ACCGACCG", "E-score": 0.252}
{"Oligonucleotide": "GCCATGAA", "E-score": -0.0867}
